Measured values of several laboratories.
Parts stem from different laboratories: compare values within a part only.
Sequence of UniProt P61075 (whole entry, looked up): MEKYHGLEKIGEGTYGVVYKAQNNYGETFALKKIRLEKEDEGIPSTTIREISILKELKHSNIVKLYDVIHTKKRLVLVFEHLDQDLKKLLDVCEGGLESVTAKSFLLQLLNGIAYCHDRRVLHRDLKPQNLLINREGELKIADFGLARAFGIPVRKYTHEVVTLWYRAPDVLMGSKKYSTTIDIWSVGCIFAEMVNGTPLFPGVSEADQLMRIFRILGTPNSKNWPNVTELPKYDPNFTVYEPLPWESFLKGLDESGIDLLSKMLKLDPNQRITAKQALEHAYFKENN
Sequence of UniProt P34969 (whole entry, looked up): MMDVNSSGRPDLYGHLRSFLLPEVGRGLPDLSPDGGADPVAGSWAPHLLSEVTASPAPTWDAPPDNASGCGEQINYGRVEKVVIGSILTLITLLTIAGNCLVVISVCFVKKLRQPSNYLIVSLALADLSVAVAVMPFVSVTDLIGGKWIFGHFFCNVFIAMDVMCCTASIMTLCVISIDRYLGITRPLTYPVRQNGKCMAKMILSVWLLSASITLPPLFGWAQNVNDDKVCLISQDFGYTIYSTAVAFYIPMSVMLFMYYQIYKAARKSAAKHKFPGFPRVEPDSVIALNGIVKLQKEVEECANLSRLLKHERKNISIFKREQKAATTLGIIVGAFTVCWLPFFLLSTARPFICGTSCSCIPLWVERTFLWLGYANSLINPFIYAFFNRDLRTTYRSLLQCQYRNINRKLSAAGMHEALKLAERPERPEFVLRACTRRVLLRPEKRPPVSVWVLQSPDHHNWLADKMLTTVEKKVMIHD
Sequence of UniProt P31645 (whole entry, looked up): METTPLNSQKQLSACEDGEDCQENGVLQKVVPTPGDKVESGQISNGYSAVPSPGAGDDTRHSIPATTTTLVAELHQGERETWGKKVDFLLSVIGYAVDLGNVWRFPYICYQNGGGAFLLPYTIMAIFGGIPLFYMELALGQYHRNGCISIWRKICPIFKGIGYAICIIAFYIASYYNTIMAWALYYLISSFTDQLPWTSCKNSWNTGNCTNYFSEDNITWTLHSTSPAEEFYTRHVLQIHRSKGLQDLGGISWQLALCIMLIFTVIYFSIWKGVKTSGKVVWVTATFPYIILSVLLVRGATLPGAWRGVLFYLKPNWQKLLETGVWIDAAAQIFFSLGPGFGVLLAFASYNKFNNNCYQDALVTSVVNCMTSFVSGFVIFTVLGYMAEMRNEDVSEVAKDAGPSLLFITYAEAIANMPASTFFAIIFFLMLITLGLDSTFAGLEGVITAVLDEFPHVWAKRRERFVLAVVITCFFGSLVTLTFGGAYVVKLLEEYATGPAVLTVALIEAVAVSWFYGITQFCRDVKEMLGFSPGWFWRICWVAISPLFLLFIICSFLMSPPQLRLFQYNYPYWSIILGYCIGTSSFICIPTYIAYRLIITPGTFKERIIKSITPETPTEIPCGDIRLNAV
Sequence of UniProt P62344 (whole entry, looked up): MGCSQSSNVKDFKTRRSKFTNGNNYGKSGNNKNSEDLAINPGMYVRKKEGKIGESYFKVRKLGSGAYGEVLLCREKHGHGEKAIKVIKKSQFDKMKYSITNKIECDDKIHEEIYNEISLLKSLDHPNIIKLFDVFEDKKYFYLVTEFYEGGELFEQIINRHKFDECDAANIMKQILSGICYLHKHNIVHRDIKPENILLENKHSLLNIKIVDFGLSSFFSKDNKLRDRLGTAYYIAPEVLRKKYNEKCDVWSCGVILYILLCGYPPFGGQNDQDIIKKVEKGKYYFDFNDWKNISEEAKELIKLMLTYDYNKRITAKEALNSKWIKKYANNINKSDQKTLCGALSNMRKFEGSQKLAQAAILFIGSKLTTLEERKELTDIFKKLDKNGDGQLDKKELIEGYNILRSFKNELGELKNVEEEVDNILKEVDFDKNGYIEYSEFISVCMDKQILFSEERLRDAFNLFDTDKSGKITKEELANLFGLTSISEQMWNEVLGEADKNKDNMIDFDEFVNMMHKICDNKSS

Block 1 — matrix: plasma; route: oral; endpoint: AUC
Compound: CNC(=O)c1ccc(-c2cnn3ccc(C(=O)N(C)c4ccc(Cl)c(C(=O)O)c4)cc23)cc1
beagle dog; 50 mg/kg/day, multiple doses: 58.2 ng·h/mL
Wistar rat, both sexes; 1000 mg/kg/day, 2 weeks, GLP toxicology study: 1430 ng·h/mL
beagle dog; 15 mg/kg/day, multiple doses: 35.5 ng·h/mL
Wistar rat, both sexes; 50 mg/kg/day, 2 weeks, GLP toxicology study: 179 ng·h/mL
Wistar rat, both sexes; 250 mg/kg/day, 2 weeks, GLP toxicology study: 651 ng·h/mL
beagle dog; 250 mg/kg/day, multiple doses: 126 ng·h/mL
bovine; 20 mg/kg/day: 103 ng·h/mL
beagle dog; 1000 mg/kg/day, multiple doses: 301 ng·h/mL

Block 2 — read-out: enzyme activity; mode: inhibitor; method: radiometric; concentration: 0.5 µM; endpoint: remaining activity
Target: Serine/threonine-protein kinase 33 (STK33, Homo sapiens, UniProt Q9BYT3)
Sequence of UniProt Q9BYT3 (whole entry, looked up): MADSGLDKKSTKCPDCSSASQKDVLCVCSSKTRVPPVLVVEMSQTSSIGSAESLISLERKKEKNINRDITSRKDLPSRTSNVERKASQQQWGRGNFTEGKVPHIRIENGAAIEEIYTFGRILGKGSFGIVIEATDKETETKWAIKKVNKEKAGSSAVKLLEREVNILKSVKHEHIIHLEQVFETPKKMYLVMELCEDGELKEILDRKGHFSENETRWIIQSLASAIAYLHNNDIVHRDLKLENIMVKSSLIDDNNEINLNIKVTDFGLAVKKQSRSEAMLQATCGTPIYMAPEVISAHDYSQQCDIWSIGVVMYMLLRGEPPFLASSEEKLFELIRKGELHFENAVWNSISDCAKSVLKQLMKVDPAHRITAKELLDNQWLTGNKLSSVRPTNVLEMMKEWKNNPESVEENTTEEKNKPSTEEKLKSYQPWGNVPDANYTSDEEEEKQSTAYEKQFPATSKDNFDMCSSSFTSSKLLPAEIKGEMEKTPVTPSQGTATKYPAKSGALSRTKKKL
CC[n+]1c(/C=C/N(C)c2ccccc2)n(-c2ccccc2)c2ccc(-c3nc4ccccc4s3)cc21: 89.4%
Cc1ccc(NC2=CC(=O)c3sc(C)nc3C2=O)cc1: 96.6%
O=C1NC(=O)C(c2c[nH]c3ccccc23)=C1c1c[nH]c2ccccc12: 97.7%
CSc1nc(-c2ccnc(N[C@@H](C)c3ccccc3)c2)c(-c2ccc(F)cc2)[nH]1 (racemic): 107%
O=S(=O)(NCCNC/C=C/c1ccc(Br)cc1)c1cccc2cnccc12: 79.5%
COc1ccc(S(=O)(=O)N(CCO)c2ccccc2CN(C)CC=Cc2ccc(Cl)cc2)cc1: 97.3%
CCc1[nH]c(-c2ccc(OC)cc2)nc1-c1ccncc1: 101%
NC(=O)c1ccc(N(C(N)=O)c2c(F)cccc2F)nc1-c1ccc(F)cc1F: 94%
Nc1ncnc2c1cnn2-c1ccccc1: 96.1%
Nc1nccc(-c2c(-c3ccc(F)cc3)ncn2C2CCNCC2)n1: 98.6%
CCCC(=O)Oc1ccc2[nH]c(C(=O)c3cc4ccccc4[nH]3)cc2c1: 92.9%
O=C1NC(=O)c2c1c1c3ccccc3n3c1c1c2c2ccccc2n1[C@H]1CC[C@@H]3O1: 12.7%
N#CC(=C(N)Sc1ccc(N)cc1)c1ccccc1C(F)(F)F: 92.2%
COc1cc(Nc2c(C#N)cnc3cc(OCCCN4CCN(C)CC4)c(OC)cc23)c(Cl)cc1Cl: 63.5%
Oc1ccc(Nc2nc(-c3ccc(Cl)cc3)cs2)cc1: 97.5%
Fc1ccc(-c2nc3n(c2-c2ccncc2)CCS3)cc1: 96.5%
CC(=O)c1ccc(N2CCOCC2)cc1O: 109%
O=C1Cc2c([nH]c3ccc([N+](=O)[O-])cc23)-c2ccccc2N1: 79.9%
Cc1cc(Nc2nc(-c3ccccc3)nc3ccccc23)n[nH]1: 44.7%
CC#CC(=O)Nc1cc2c(Nc3ccc(F)c(Cl)c3)ncnc2cn1: 88.5%
Nc1nc(Nc2ccc(S(N)(=O)=O)cc2)nn1C(=O)c1c(F)cccc1F: 74.4%
Cc1cncc2cccc(S(=O)(=O)N3CCCN(C(=O)CN)C[C@@H]3C)c12: 100%
CC(C)(C)n1nc(Cc2cccc3ccccc23)c2c(N)ncnc21: 99.7%

Block 3 — mode: agonist; endpoint: EC50
Target: Beta-1 adrenergic receptor (ADRB1, Homo sapiens, UniProt P08588)
Sequence of UniProt P08588 (whole entry, looked up): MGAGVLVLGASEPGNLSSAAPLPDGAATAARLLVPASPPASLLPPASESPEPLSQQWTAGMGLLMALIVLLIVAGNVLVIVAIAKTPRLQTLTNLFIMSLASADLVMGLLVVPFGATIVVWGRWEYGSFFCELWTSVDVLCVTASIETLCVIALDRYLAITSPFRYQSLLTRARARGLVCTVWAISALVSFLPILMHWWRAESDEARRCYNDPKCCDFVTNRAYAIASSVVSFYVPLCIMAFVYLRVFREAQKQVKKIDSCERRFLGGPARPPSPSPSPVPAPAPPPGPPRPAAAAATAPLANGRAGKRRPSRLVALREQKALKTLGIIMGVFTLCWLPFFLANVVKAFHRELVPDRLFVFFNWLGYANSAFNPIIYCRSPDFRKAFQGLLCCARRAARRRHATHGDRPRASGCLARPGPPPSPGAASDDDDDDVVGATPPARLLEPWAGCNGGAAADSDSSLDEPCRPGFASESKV
CCCN(CCC)[C@H]1CCc2c(O)cccc2C1: ≥ 100 µM
Oc1ccc(OC[C@@H]2CNCC[C@H]2c2ccc(F)cc2)cc1O: ≥ 100 µM
CN(C)C(=O)Oc1cc(OC(=O)N(C)C)cc(C(O)CNC(C)(C)C)c1 (centres unmarked): ≥ 100 µM
c1cc2cc(N3CCNCC3)ccc2cn1: 2 µM
COCCN1CCN(c2ccccc2OC)CC1: ≥ 100 µM
O=C1C=CC(=O)c2c1ccc1c2ccc2ccccc21: ≥ 100 µM

Block 4 — organism: Sarcocystis neurona; read-out: parasite growth; concentration: 10 µM; time: 96 h; notes: first screen; endpoint: inhibition
C=CCN1CC[C@]23c4c5ccc(O)c4O[C@H]2C(=O)CC[C@@]3(O)[C@H]1C5: -12.3%
CC[C@@H](C(N)=O)N1CCCC1=O: -5.3%
C[C@]12CC[C@H](O)CC1=CC[C@@H]1[C@@H]2CC[C@]2(C)C(=O)CC[C@@H]12: 0.8%
NC(=NCc1ccc(Cl)cc1)SCCCc1cnc[nH]1: 20.8%
CC(C)CC(N(C)C)C1(c2ccc(Cl)cc2)CCC1 (centres unmarked): 0.134%
CC(O)(CS(=O)(=O)c1ccc(F)cc1)C(=O)Nc1ccc(C#N)c(C(F)(F)F)c1 (centres unmarked): -4.6%

Mixed results
CCC(=N\O)/C(C)=C/c1ccc(F)cc1
remaining binding (CDPK1 (Plasmodium falciparum, UniProt P62344); cell-free assay, competition with immobilised ligand; 1 µM): 87%

CNC(=O)c1cc(C(=O)NC2CC2)cn(Cc2ccccc2)c1=O
inhibition (HTR7 (Homo sapiens, UniProt P34969); binding, radioligand binding; 10 µM): 13.6%

c1ccc(N2CCN(Cc3nc4ccccc4[nH]3)CC2)nc1
remaining binding (CRK2 (Plasmodium falciparum, UniProt P61075); cell-free assay, competition with immobilised ligand; 1 µM): 100%

COc1ccc2c(c1)O[C@H](c1ccc(OC)c(OC)c1)C[C@@H]2NC(=O)C1(c2ccc3c(c2)OC(F)(F)O3)CC1
inhibition (SLC6A4 (Homo sapiens, UniProt P31645); cell-free assay; 10 µM): -12.4%
